Results of several laboratories.
Lines come from different studies, so protocols differ. Numbers after ± are the reported error.
Technique: steady-state kinetics
B1: BshA Y95F (Bacillus subtilis, UniProt P42982); chain MRKLKIGITCYPSVGGSGIIATELGKQLAEKGHEIHFITSSIPFRLNTYHPNIHFHEVEVNQYAVFKYPPYDLTLASKIAEVAERENLDIIHAHFALPHAVCAYLAKQMLKRNIGIVTTLHGTDITVLGYDPSLKDLIRFAIESSDRVTAVSSALAAETYDLIKPEKKIETIYNFIDERVYLKKNTAAIKEKHGILPDEKVVIHVSNFRKVKRVQDVIRVFRNIAGKTKAKLLLVGDGPEKSTACELIRKYGLEDQVLMLGNQDRVEDLYSISDLKLLLSEKESFGLVLLEAMACGVPCIGTNIGGIPEVIKNNVSGFLVDVGDVTAATARAMSILEDEQLSNRFTKAAIEMLENEFSSKKIVSQYEQIYADLAEPE
B2: cbh1 (Trichoderma reesei, UniProt P62694); chain QSACTLQSETHPPLTWQKCSSGGTCTQQTGSVVIDANWRWTHATNSSTNCYDGNTWSSTLCPDNETCAKNCCLDGAAYASTYGVTTSGNSLSIGFVTQSAQKNVGARLYLMASDTTYQEFTLLGNEFSFDVDVSQLPCGLNGALYFVSMDADGGVSKYPTNTAGAKYGTGYCDSQCPRDLKFINGQANVEGWEPSSNNANTGIGGHGSCCSEMDIWEANSISEALTPHPCTTVGQEICEGDGCGGTYSDNRYGGTCDPDGCDWNPYRLGNTSFYGPGSSFTLDTTKKLTVVTQFETSGAINRYYVQNGVTFQQPNAELGSYSGNELNDDYCTAEEAEFGGSSFSDKGGLTQFKKATSGGMVLVMSLWDDYYANMLWLDSTYPTNETSSTPGAVRGSCSTSSGVPAQVESQSPNAKVTFSNIKFGPIGSTGNPSGGNPPGGNRGTTTTRRPATTTGSSPGPTQSHYGQCGGIGYSGPTVCASGTTCQVLNPYYSQCL
B3: protein (Adiantum capillus-veneris, UniProt A0A4Y6I289); chain MTDAVENKQVEFGALEVEGIKFAPSVAALGSTKQLVLGGAGFRGLEISGNLVKFTAIGIYVDEAIIPHLSPKLHGKSIEELCNNELLFEEVLAAPFEKLVRVVFLLPLTGPQYSEKVVERMGLLPNPGIKEESTKQFLEIFKPENFPPRTSLICSFTEEALKVAFMKTDDFPEDADAVIEDKWLARAFLASIIGKDGVSPLAKLSFAERMSRCL
B4: protein F222A (Planktothrix agardhii, UniProt F5B6Z0); chain MIVNVIQKDRLKEQKLQFIRNHQQAFDVEPIYPLPLFEDFVTSIEGDCSLEASCKIESDKLIASRFLLFFEDKTQEWQKYLHQSLTFFGLVENRVGVKINYSLLQQFLGSSFDFSKVTVLSAGIDLRNNLAESSLKMHIRIKDYPEKLDKAFALSDGAADGNYLKDFVNLIGFDFYFNGKSEIEIYAEVQEDDFFKPEINNLVWQHFPKTALQPLKASSLFATGLSKANNNPVLYYHLKNRQDLTNYFKLNDTAQRVHSFYQHQDILPYMWVGTAQKELEKTRIENIRLYYYKSFKMESN
B5: enzyme (Vitis vinifera, UniProt F6HSW4); chain MAVDSGLSSPLGPPACEKDAKALQFIEEMTRNPDQVQEKILAEILSQNGETEYLQRFKLAGATDRDTFKSKVPVVTYEDLQPDIQRIANGDRSPILSSHPISEFLTSSGTSAGERKLMPTIHEEWDRRQKLYSLLMPVMNLYVPGLDKGKGLYFLFVKSETKTPSGLVARPVLTGYYRSEHFKKRPYDPYNVYTSPDEAILCVDSFQSMYAQMLCGLLMHKEVLRVGAVFASGLLRAIRFLQVHWQQLAHDISTGILNPKITDPSVREGLAGILKPSQELADFIIQECSGGNWERIITRIWPNTKYLDVIVTGAMAQYIPTLDYFSGGIPLACTMYASSECYFGLNLKPMSKPSEVSYTIMPNMGYFEFLPHDPSAPPLSRDSPPRLVDLADVEVGKEYELVITTYAGLCRYRVGDILQVTGFHNSAPQFQFIRRKNVLLSIDSDKTDEAELQKAVENASLLLREFNTSVVEYTSFADTKTIPGHYVIYWELLVKDPSNSPTDTVLKQCCLAMEESLNTVYRQGRVADNSIGPLEIRVVKSGTFEELMDYAISRGASINQYKVPRCVNFTPIMELLDSRVLSTYFSPAAPHWTPERRRTD
B6: tsaM1 F253S/G291W/H204M/H255G/M230N/R216A/S234V/S257H/T232I/Y220I (Comamonas testosteroni, UniProt P94679); chain MFIRNCWYVAAWDTEIPAEGLFHRTLLNEPVLLYRDTQGRVVALENRCCHRSAPLHIGRQEGDCVRCLYHGLKFNPSGACVEIPGQEQIPPKTCIKSYPVVERNRLVWIWMGDPARANPDDIVDYFWHDSPEWRMKPGYIHYQANYKLIVDNLLDFTHLAWVHPTTLGTDSAASLKPVIERDTTGTGKLTITRWYLNDDMSNLMKGVAKFEGKADAWQIIQWSPPALLRNDIGVAPTGTGAPEGRRVPEAVQSRGTHIQTPETETTSHYWFCQARNFDLDDEALTEKIYQWVVVAFEEDRTMIEAHEKILSQVPDRPMVPIAADAGLNQGRWLLDRLLKAENGGTAP
B7: GTPBP3 E459K (Homo sapiens, UniProt Q969Y2); chain TRRSSGAPAPGSGATIFALSSGQGRCGIAVIRTSGPASGHALRILTAPRDLPLARHASLRLLSDPRSGEPLDRALVLWFPGPQSFTGEDCVEFHVHGGPAVVSGVLQALGSVPGLRPAEAGEFTRRAFANGKLNLTEVEGLADLIHAETEAQRRQALRQLDGELGHLCRGWAETLTKALAHVEAYIDFGEDDNLEEGVLEQADIEVRALQVALGAHLRDARRGQRLRSGVHVVVTGPPNAGKSSLVNLLSRKPVSIVSPEPGTTRDVLETPVDLAGFPVLLSDTAGLREGVGPVEQEGVRRARERLEQADLILAMLDASDLASPSSCNFLATVVASVGAQSPSDSSQRLLLVLNKSDLLSPEGPGPGPDLPPHLLLSCLTGEGLDGLLEALRKELAAVCGDPSTDPPLLTRARHQHHLQGCLDALGHYKQSKDLALAAKALRVARGHLTRLTGGGGTEEILDIIFQDFCVGK
B8: enzyme A178R/D177A/M179S/P184R (Levilactobacillus brevis, UniProt Q03Q85); chain MKVTVVGCTHAGTFAIKQILAEHPDAEVTVYERNDVISFLSCGIALYLGGKVADPQGLFYSSPEELQKLGANVQMNHNVLAIDPDQKTVTVEDLTNHAQTTESYDKLVMTSGSWPIVPKIPGIDSDRVKLCKNWAHAQALIEDAKEAKRITVIGAGYIGAELAEAYSTTGHDVTLIARSARVMRKYFDADFTDVIEQDYRDHGVQLALGETVESFTDSATGLTIKTDKNSYETDLAILCIGFRPNTDLLKGKVDMAPNGAIITDDYMRSSNPDIFAAGDSAAVHYNPTHQNAYIPLATNAVRQGILVGKNLVKPTVKYMGTQSSSGLALYDRTIVSTGLTLAAAKQQGLNAEQVIVEDNYRPEFMPSTEPVLMSLVFDPDTHRILGGALMSKYDVSQSANTLSVCIQNENTIDDLAMVDMLFQPNFDRPFNYLNILAQAAQAKVAQSVNA
B9: UCK2 (Homo sapiens, UniProt Q9BZX2); chain MAGDSEQTLQNHQQPNGGEPFLIGVSGGTASGKSSVCAKIVQLLGQNEVDYRQKQVVILSQDSFYRVLTSEQKAKALKGQFNFDHPDAFDNELILKTLKEITEGKTVQIPVYDFVSHSRKEETVTVYPADVVLFEGILAFYSQEVRDLFQMKLFVDTDADTRLSRRVLRDISERGRDLEQILSQYITFVKPAFEEFCLPTKKYADVIIPRGADNLVAINLIVQHIQDILNGGPSKRQTNGCLNGYTPSRKRQASESSSRPH
B10: alanine racemase H166F (Geobacillus stearothermophilus, UniProt P10724); chain MNDFHRDTWAEVDLDAIYDNVENLRRLLPDDTHIMAVVKANAYGHGDVQVARTALEAGASRLAVAFLDEALALREKGIEAPILVLGASRPADAALAAQQRIALTVFRSDWLEEASALYSGPFPIHFHLKMDTGMGRLGVKDEEETKRIVALIERHPHFVLEGLYTFFATADEVNTDYFSYQYTRFLHMLEWLPSRPPLVHCANSAASLRFPDRTFNMVRFGIAMYGLAPSPGIKPLLPYPLKEAFSLHSRLVHVKKLQPGEKVSYGATYTAQTEEWIGTIPIGYADGWLRRLQHFHVLVDGQKAPIVGRICMDQCMIRLPGPLPVGTKVTLIGRQGDEVISIDDVARHLETINYEVPCTISYRVPRIFFRHKRIMEVRNAIGRGESSA
B11: sacB S173A (Priestia megaterium, UniProt D5DC07); chain KGNDSKDFNNSYGISHITRDNMVKIPQQQNSDQFKVPAFDESTIKNIASAKGKNASGNTIDLDVWDSWPLQNADGTVATYHGYQIVFALAGDPKDSNDTSVYLFYKKAGDKSIDSWKNAGRVFKDSDKFVPNDPHLKNQTQEWAGSGTLTKDGKVRLFYTDYSGKQYGKQTLTTAQVNMSQPNDNTLKVDGVEDYKSIFDGDGKIYQTVQQFIDEGGYDTGDNHTLRDPHYIEDNGHKYLVFEANTGTEDGYQGEDSLYNRAYYGGNNPFFQSEKKKLLEGSNKEKASLANGALGIIELNDDYTLKKVMKPLITSNTVTDEIERANIFKKDGKWYLFTDSRGSKMTIDGIGQDDVYMLGYVSNTLTGKYKPLNDTGLVLHMDLDPNDKTFTYSHFAVPQTKGDNVVITSYMTNRGFYEDNHSTFAPSFLVNIDGSKTSVVKDRVLEQGQLTVDED
UniProt P19337, sequence (whole entry, looked up): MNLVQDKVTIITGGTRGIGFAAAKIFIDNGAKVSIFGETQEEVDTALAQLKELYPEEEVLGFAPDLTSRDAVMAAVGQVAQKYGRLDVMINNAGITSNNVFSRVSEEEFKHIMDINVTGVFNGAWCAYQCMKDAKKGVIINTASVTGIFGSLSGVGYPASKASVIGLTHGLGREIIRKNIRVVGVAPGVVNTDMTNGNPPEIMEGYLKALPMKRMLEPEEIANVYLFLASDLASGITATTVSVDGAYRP
UniProt Q6ZQB6, sequence (whole entry, looked up): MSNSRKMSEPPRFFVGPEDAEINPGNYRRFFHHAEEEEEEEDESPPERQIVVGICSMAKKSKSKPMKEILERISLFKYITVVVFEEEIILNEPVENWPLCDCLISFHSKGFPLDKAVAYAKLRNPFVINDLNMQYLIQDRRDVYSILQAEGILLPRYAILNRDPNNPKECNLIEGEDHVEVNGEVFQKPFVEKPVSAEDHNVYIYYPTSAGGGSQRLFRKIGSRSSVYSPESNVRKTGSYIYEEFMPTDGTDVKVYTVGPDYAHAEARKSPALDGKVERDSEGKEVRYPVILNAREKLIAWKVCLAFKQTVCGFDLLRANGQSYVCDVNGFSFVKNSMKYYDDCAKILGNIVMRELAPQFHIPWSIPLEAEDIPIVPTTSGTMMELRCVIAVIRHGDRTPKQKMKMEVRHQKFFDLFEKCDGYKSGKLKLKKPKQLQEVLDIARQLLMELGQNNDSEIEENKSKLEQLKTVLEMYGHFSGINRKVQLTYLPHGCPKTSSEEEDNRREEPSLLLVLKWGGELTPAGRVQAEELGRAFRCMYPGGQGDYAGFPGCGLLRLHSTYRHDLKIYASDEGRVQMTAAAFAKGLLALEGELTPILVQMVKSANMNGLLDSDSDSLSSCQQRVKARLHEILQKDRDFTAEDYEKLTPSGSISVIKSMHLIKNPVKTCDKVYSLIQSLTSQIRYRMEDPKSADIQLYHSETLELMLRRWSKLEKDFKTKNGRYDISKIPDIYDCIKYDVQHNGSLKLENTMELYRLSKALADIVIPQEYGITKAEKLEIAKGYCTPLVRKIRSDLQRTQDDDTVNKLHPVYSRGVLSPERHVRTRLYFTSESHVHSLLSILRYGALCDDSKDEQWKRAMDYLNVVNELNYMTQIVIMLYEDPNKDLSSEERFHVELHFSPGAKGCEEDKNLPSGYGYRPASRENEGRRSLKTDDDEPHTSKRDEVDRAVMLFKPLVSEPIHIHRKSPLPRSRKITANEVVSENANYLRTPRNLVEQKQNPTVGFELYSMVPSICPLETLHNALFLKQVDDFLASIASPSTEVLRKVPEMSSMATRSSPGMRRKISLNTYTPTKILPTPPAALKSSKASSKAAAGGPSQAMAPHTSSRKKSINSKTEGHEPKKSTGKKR

`B1 (BshA Y95F)` has a kcat/Km of 2600 M⁻¹ s⁻¹ (CC(=O)N[C@H]1[C@@H](OP(=O)(O)OP(=O)(O)OC[C@H]2O[C@@H](n3ccc(=O)[nH]c3=O)[C@H](O)[C@@H]2O)O[C@H](CO)[C@@H](O)[C@@H]1O; pH 7.5, 21 °C, with: malate 0–25 mM).
`B2 (cbh1)` has a kcat/Km of 147 M⁻¹ s⁻¹ ([H][C@@]1(O[C@H]2[C@H](O)[C@@H](O)[C@H](Oc3ccc([N+](=O)[O-])cc3)O[C@@H]2CO)O[C@H](CO)[C@H](O)[C@H](O)[C@H]1O; pH 5, 25 °C, apparent).
With `B3 (protein)` the kcat/Km was 6580 M⁻¹ s⁻¹ (O=C(/C=C/c1ccc(O)cc1)c1ccc(O)cc1O).
`protein (Streptomyces coelicolor, UniProt Q9K464)` has a kcat/Km of 645 M⁻¹ s⁻¹ (CC(=O)CC(=O)SCCNC(=O)CCNC(=O)[C@H](O)C(C)(C)COP(=O)(O)OP(=O)(O)OC[C@H]1O[C@@H](n2cnc3c(N)ncnc32)[C@H](O)[C@@H]1OP(=O)(O)O; pH 7.8, 30 °C, NaCl 150 mM, with: methylmalonyl-CoA 1.0 mM).
For `protein (Actinidia deliciosa, UniProt Q32W37)`, the kcat/Km was 6700 ± 500 M⁻¹ s⁻¹ (CC(C)=CCC/C(C)=C/CC/C(C)=C/CO[P@@](=O)(O)OP(=O)(O)O; pH 7.5, with: FPP 1-100 µM).
`BaiA2 (Clostridium scindens, UniProt P19337)` has a kcat/Km of 102000 M⁻¹ s⁻¹ (C[C@H](CCC(=O)SCCNC(=O)CCNC(=O)[C@H](O)C(C)(C)COP(=O)(O)OP(=O)(O)OC[C@H]1O[C@@H](n2cnc3c(N)ncnc32)[C@H](O)[C@@H]1OP(=O)(O)O)[C@H]1CC[C@H]2[C@@H]3CC[C@@H]4CC(=O)CC[C@]4(C)[C@H]3C[C@H](O)[C@]12C; pH 8.7, 37 °C, with: NADH).
With `B4 (protein F222A)` the kcat/Km was 38.5 M⁻¹ s⁻¹ (CC(C)=CCOP(=O)(O)OP(=O)(O)O; with: tri-Tyr peptide acceptor).
The kcat/Km of `B5 (enzyme)` is reported as 904 M⁻¹ s⁻¹ (O=C(O)Cc1cccc2ccccc12; pH 8.6, 25 °C).
With `Ppip5k2 (Mus musculus, UniProt Q6ZQB6)` the kcat/Km was 14000 M⁻¹ s⁻¹ (O=P(O)(O)O[C@@H]1[C@@H](OP(=O)(O)O)[C@H](OP(=O)(O)OP(=O)(O)O)[C@@H](OP(=O)(O)O)[C@H](OP(=O)(O)OP(=O)(O)O)[C@@H]1OP(=O)(O)O; pH 5, 37 °C).
For `PGDH1 (Amborella trichopoda, UniProt U5D351)`, the kcat/Km was 25100 ± 2200 M⁻¹ s⁻¹ (O=C(O)[C@H](O)COP(=O)(O)O; pH 9, 25 °C, NaCl 0.1 M, apparent, with: NAD+).
`B6` gave a kcat/Km of 1100 ± 200 M⁻¹ s⁻¹ (COc1c(Cl)ccc(Cl)c1C(=O)O; apparent, with: NADH 1 mM).
With `B7 (GTPBP3 E459K)` the kcat/Km was 2340 M⁻¹ s⁻¹ (Nc1nc2c(ncn2[C@@H]2O[C@H](COP(=O)(O)OP(=O)(O)OP(=O)(O)O)[C@@H](O)[C@H]2O)c(=O)[nH]1; pH 8, 37 °C, KCl 300 mM).
The kcat/Km of `B8 (enzyme A178R/D177A/M179S/P184R)` is reported as 2.7e+07 ± 6e+06 M⁻¹ s⁻¹ (NC(=O)C1=CN([C@@H]2O[C@H](COP(=O)(O)OP(=O)(O)OC[C@H]3O[C@@H](n4cnc5c(N)ncnc54)[C@H](OP(=O)(O)O)[C@@H]3O)[C@@H](O)[C@H]2O)C=CC1; pH 7.5, 37 °C, per site).
`B9 (UCK2)` gave a kcat/Km of 100000 M⁻¹ s⁻¹ (Nc1ccn([C@@H]2O[C@H](CO)[C@@H](O)[C@H]2O)c(=O)n1; pH 7.2, 25 °C, KCl 100 mM, with: ATP 100–200 µM).
With `alanine aminopeptidase (Neisseria meningitidis, UniProt Q9JYV4)` the kcat/Km was 205000 ± 7000 M⁻¹ s⁻¹ (N=C(N)NCCC[C@H](N)C(=O)Nc1ccc2c(CC(N)=O)cc(=O)oc2c1; pH 7.5, 37 °C).
The kcat/Km of `B10 (alanine racemase H166F)` is reported as 1000 M⁻¹ s⁻¹ (C[C@@H](N)C(=O)O; pH 9, room temperature, with: NAD+ 10 mM).
With `enzyme (Thermobifida fusca, UniProt Q47RK4)` the kcat/Km was 1 M⁻¹ s⁻¹ (CC(C)(COP(=O)(O)OP(=O)(O)OC[C@H]1O[C@@H](n2cnc3c(N)ncnc32)[C@H](O)[C@@H]1OP(=O)(O)O)[C@@H](O)C(=O)NCCC(=O)NCCSC(=O)CC(=O)O; pH 7.4, 37 °C).
`B11 (sacB S173A)` has a kcat/Km of 970 M⁻¹ s⁻¹ (OC[C@H]1O[C@@](CO)(O[C@H]2O[C@H](CO)[C@@H](O)[C@H](O)[C@H]2O)[C@@H](O)[C@@H]1O; pH 6.6).
